Measurements from different studies.
Lines come from different studies, so protocols differ. ± marks the error that the study gave.
Organism: Influenza A virus

CCOC(=O)C1=C[C@@H](OC(CC)CC)[C@H](NC(C)=O)[C@@H](NCCCCCCCC(=O)Nc2cccc3c2C(=O)N(C2CCC(=O)NC2=O)C3=O)C1 (stereo partly drawn) has an EC50 of 2.03 ± 0.02 µM (viral replication; MDCK, H1N1).
COc1cc(-c2oc3cc(O)cc(O)c3c(=O)c2O[C@@H]2O[C@H](CO)[C@@H](O)[C@H](OC(C)=O)[C@H]2O)ccc1O has an EC50 of 32.7 ± 0.075 µM (viral replication; MDCK, A/Vladivostok/2/09(H1N1)).
For CN1CC23C4CCC5C4C4C2CCC4C53C1, the EC50 was 2.9 µM (viral replication; MDCK, H1N1 A/PR/8/34).
COc1ccc(C2=C(N3CCCC(O)C3)C(C)(OC)OC2=O)cc1 (stereo not drawn) has an EC50 of 25.9 ± 0.1 µM (MDCK, H1N1 A/Weiss/43; 72 h).
With CCN(CC)CC12C3CCC4C3C3C(CCC31)C42 the EC50 was greater than 100 µM (viral replication; MDCK, H1N1 A/PR/8/34).
Cc1ncsc1-c1ccc([C@H](C)NC(=O)[C@@H]2C[C@@H](O)CN2C(=O)[C@@H](N)C(C)(C)C)cc1 has an EC50 of greater than 50 µM (viral replication; MDCK, H1N1).
For Ic1ccc(CNC23CC4CC(CC(C4)C2)C3)s1, the EC50 was 4 µM (viral replication, plaque reduction; MDCK, A/Udorn/72 wild-type M2).
CCOC(=O)C1=C[C@@H](OC(CC)CC)[C@H](NC(C)=O)[C@@H](NCCCCCCC(=O)Nc2cccc3c2C(=O)N(C2CCC(=O)NC2=O)C3=O)C1 (stereo partly drawn) has an EC50 of 1.71 ± 0.13 µM (viral replication; MDCK, H1N1).
With COc1cc(-c2oc3cc(O)cc(O)c3c(=O)c2O[C@@H]2O[C@H](CO[C@@H]3O[C@@H](C)[C@H](O)[C@@H](O)[C@H]3O)[C@@H](O)[C@H](OC(C)=O)[C@H]2O)ccc1O the EC50 was 285.3 ± 0.72 µM (viral replication; MDCK, A/Vladivostok/2/09(H1N1)).
COc1cccc(CNC(=O)c2cc(C(C)(C)C)nn2C)c1OC gave an EC50 of less than 1 µM (viral replication; MDCK, A/WSN/33).
With CN[C@H](CC(C)C)C(=O)N[C@H]1C(=O)N[C@@H](CC(N)=O)C(=O)N[C@H]2C(=O)N[C@H]3C(=O)N[C@H](C(=O)N[C@H](C(=O)O)c4cc(O)cc(O)c4-c4cc3ccc4O)[C@H](O)c3ccc(c(Cl)c3)Oc3cc2cc(c3O)Oc2ccc(cc2Cl)[C@H]1O the EC50 was 38 µM (cytopathic effect, inhibitor; MDCK, H3N2; 72 h).
CCOC(=O)C1=C[C@@H](OC(CC)CC)[C@H](NC(C)=O)[C@@H](NCCCCC(=O)Nc2cccc3c2C(=O)N(C2CCC(=O)NC2=O)C3=O)C1 (stereo partly drawn) has an EC50 of 1.19 ± 0.11 µM (viral replication; MDCK, H1N1).
CCN(CC)C12C3CCC4C3C3C(CCC31)C42 gave an EC50 of greater than 100 µM (viral replication, inhibitor; H3N2).
With COc1cc(-c2oc3cc(O[C@@H]4O[C@H](CO)[C@@H](O)[C@H](O)[C@H]4O)cc(O)c3c(=O)c2O[C@@H]2O[C@H](CO[C@@H]3O[C@@H](C)[C@H](OC(C)=O)[C@@H](O)[C@H]3OC(C)=O)[C@@H](O)[C@H](O)[C@H]2O)ccc1O the EC50 was 109.2 ± 0.92 µM (viral replication; MDCK, A/Vladivostok/2/09(H1N1)).
For COC1(C)OC(=O)C(c2ccc(C)cc2)=C1N1CCOCC1 (stereo not drawn), the EC50 was 14.1 ± 2.5 µM (MDCK, H1N1 A/Weiss/43; 72 h).
c1csc(CNCC23C4CCC5C4C4C(CCC42)C53)c1 gave an EC50 of greater than 100 µM (viral replication; MDCK, H3N2 A/HK/7/87).
With COc1cc(-c2oc3cc(O)cc(O)c3c(=O)c2O[C@@H]2O[C@H](CO[C@@H]3O[C@@H](C)[C@H](OC(C)=O)[C@@H](O)[C@H]3OC(C)=O)[C@@H](O)[C@H](O)[C@H]2O)ccc1O the EC50 was 197.7 ± 0.7 µM (viral replication; MDCK, A/Vladivostok/2/09(H1N1)).
CCC1(CC)C2CC3CC(C2)CC1(NC)C3 has an EC50 of 9.3 ± 0.3 µM (viral replication; MDCK, A/FM/1/47 (H1N1)).
The EC50 of Clc1ccc(CNC23CC4CC(CC(C4)C2)C3)s1 is reported as 3.8 µM (viral replication, plaque reduction; MDCK, A/Udorn/72 wild-type M2).
The EC50 of CN(Cc1ccccc1)CC12C3CCC4C3C3C(CCC31)C42 is reported as greater than 100 µM (viral replication; MDCK, H1N1 A/PR/8/34).
COc1ccc(C2=C(N3CCSCC3)C(C)(OC)OC2=O)cc1 (stereo not drawn) has an EC50 of 25.6 ± 0.4 µM (MDCK, H1N1 A/Weiss/43; 72 h).
